Measurements of several laboratories.
Lines come from different studies, so protocols differ. Numbers after ± are the reported error.

CCC[C@@H]1NC(=O)[C@@H](Cc2ccccc2)N(C)C(=O)[C@@H]2CCCN2C(=O)[C@H](CC(C)C)N(C)C(=O)CCC(=O)Nc2cccc(c2)[C@@H](CCc2ccc(OC)c(OC)c2)OC(=O)[C@@H]2CCCCN2C(=O)C(=O)C(C)(C)COC(=O)C=CCCN(C)C1=O
IC50 (HUVEC; thymidine uptake, inhibitor): 1100 ± 200 nM

CCNC(NN=Cc1ccc([N+](=O)[O-])o1)=[S+][Au-][Cl]
IC50 (IMR-90; cell growth or viability, resazurin): > 100000 nM

O=C(CCCCCONC(=O)c1nc(-c2ccc(Cl)s2)cs1)NO
IC50 (neonatal foreskin fibroblasts; cytotoxicity, sulforhodamine B; 72 h): 2950 nM

COc1ccc(CC[C@H]2OC(=O)[C@@H]3CCCCN3C(=O)C(=O)C(C)(C)COC(=O)C=CCCN(C)C(=O)[C@H](CC(C)C)N(C)C(=O)[C@H]3CCCN3C(=O)[C@H](Cc3ccccc3)N(C)C(=O)[C@H](CCc3ccccc3)NC(=O)CCC(=O)Nc3cccc2c3)cc1OC
IC50 (HUVEC; thymidine uptake, inhibitor): > 20000 nM

COC1CN([C@H]2CC[C@H]([C@@]3(C)Oc4c(Cl)cc(C(=O)NCc5c(SC)cc(C)[nH]c5=O)c(C)c4O3)CC2)C1
log2 fold change (RNA-seq, refers to: CFAP43 mouse homolog; mouse, HT-1376 xenograft, whole blood; dose not given; relative to: vehicle): 0.545

Cc1cnc2nc1Nc1cc(F)cc(c1)COC/C=C/COCc1cc(ccc1OCCN1CCCC1)N2
IC50 (HEL 92.1.7 JAK2 V617F; cell growth, CCK-8): 4540 nM

COc1ccc(CC[C@H]2OC(=O)[C@@H]3CCCCN3C(=O)C(=O)C(C)(C)COC(=O)C=CCCN(C)C(=O)[C@H](CC(C)C)N(C)C(=O)[C@H]3CCCCN3C(=O)[C@H](Cc3ccccc3)N(C)C(=O)[C@H](c3ccccc3)NC(=O)CCC(=O)Nc3cccc2c3)cc1OC
IC50 (HUVEC; thymidine uptake, inhibitor): 1920 ± 530 nM

C=C(NC(=O)c1csc(-c2nc3c(cc2O)-c2nc(cs2)C(=O)NC(C(C)O)C(=O)NC(=C(C)OC)c2nc(cs2)C(=O)NC2c4nc(cs4)C(=O)NC(COC(=O)c4c5c6c(cccc6n4O)COC(=O)C(OC4CC(C)(O)C(N(C)C)C(C)O4)C2OC5)c2nc-3cs2)n1)C(N)=O (stereo not drawn)
half-life (ICR mice, Streptococcus pneumoniae ATCC 49169 infected, immunocompromised, blood; intravenous, 8 mg/kg/day once daily): 4.9 h

O=C(CCCCCONC(=O)c1nc(-c2ccc(N3CCCC3)cc2)cs1)NO
IC50 (neonatal foreskin fibroblasts; cytotoxicity, sulforhodamine B; 72 h): 650 nM

Cc1ccc(CN2C(=O)/C(=N\c3ccc(Cl)cc3Br)c3ccccc32)cc1
IC50 (L02; cell growth or viability, MTT; 48 h): 23100 nM

C[C@@H](c1cccc2ccccc12)N1C(=O)C2=Nc3ccccc3CN2C1=S
IC50 (CCRF-CEM; cell growth or viability, resazurin; 72 h): 191 nM

CCOc1cncc(-c2ccc(NC(=O)C3(c4ccnc(NS(=O)(=O)C5CC5)n4)CCOCC3)nc2)n1
IC50 (MDA-MB-453; cell growth or viability, ATP luminescence; 72 h): 25 nM

CC(=O)[O][Pt]([NH2])([NH2])([Cl])([Cl])[O]C(=O)CCCc1ccccc1
IC50 (BCPAP; cell growth or viability, MTT; 72 h): 2250 nM

Cc1ncsc1-c1ccc(C(C)NC(=O)C2CC(O)CN2C(=O)C(NC(=O)CCCCCCCCCCN2CCCC(Nc3ncc(Cl)c(Nc4ccccc4S(=O)(=O)C(C)C)n3)C2)C(C)(C)C)cc1 (stereo not drawn)
log2 fold change (22Rv1; RNA-seq, refers to: ZNF184 mRNA; concentration not given; relative to: DMSO): -1.14

C=C1CC[C@H](OCCCNC(=O)CCOCCOCCOCCOCCOCCOCCOCCOCCOCCOCCOCCOCCOCCOCCOCCOCCOCCOCCOCCOCCOCCOCCOCCOCCOCCOCCOCCOCCOCCOCCOCCOCCOCCOCCOCCOCCNC(=O)CCN2C(=O)CC(SC[C@H](NC(=O)[C@H](Cc3ccccc3)NC(=O)[C@H](CC(N)=O)NC(=O)[C@H](Cc3c[nH]cn3)NC(=O)[C@@H](NC(=O)[C@H](CC(=O)O)NC(=O)[C@H](CCC(N)=O)NC(=O)[C@H](CC(C)C)NC(=O)[C@H](CCCCN)NC(=O)[C@H](CCCCN)NC(=O)[C@H](CCCNC(=N)N)NC(=O)[C@H](CC(C)C)NC(=O)[C@H](Cc3c[nH]c4ccccc34)NC(=O)[C@H](CCC(=O)O)NC(=O)[C@@H](NC(=O)[C@H](CCCNC(=N)N)NC(=O)[C@H](CCC(=O)O)NC(=O)[C@H](CCSC)NC(=O)[C@H](CO)NC(=O)[C@H](CC(N)=O)NC(=O)[C@H](CC(C)C)NC(=O)[C@H](Cc3c[nH]cn3)NC(=O)[C@H](CCCCN)NC(=O)CNC(=O)[C@H](CC(C)C)NC(=O)[C@H](CC(N)=O)NC(=O)[C@H](Cc3c[nH]cn3)NC(=O)[C@H](CCSC)NC(=O)[C@H](CC(C)C)NC(=O)[C@H](CCC(N)=O)NC(=O)[C@@H](NC(=O)[C@H](CCC(=O)O)NC(=O)[C@H](CO)NC(=O)[C@@H](NC(=O)[C@@H](N)CO)C(C)C)[C@@H](C)CC)C(C)C)C(C)C)C(=O)O)C2=O)C/C1=C/C=C1\CCC[C@]2(C)[C@@H]([C@H](C)CCCC(C)(C)O)CC[C@@H]12 (stereo partly drawn)
Tmax (male Sprague-Dawley rat, plasma; subcutaneous, 30 µg/kg, single dose): 0.42 h

O=c1c2ccccc2[se]n1CCCCCCn1[se]c2ccccc2c1=O
IC50 (H22; cell growth or viability; 5 days): 1510 nM

C=CC(=O)Nc1cccc(Cn2ncc3cnc(Nc4cnn(CCOC)c4)nc32)c1
percent of control (SIK2 human; binding, KINOMEscan; 100 nM; lower = stronger binding): 81%

O=C1C=CC2(Oc3cccc4cccc(c34)O2)c2ccccc21
IC50 (MDA-MB-435; cell growth or viability, resazurin; 72 h): 2300 nM

Nc1ncc(-c2cc(-c3cnn(CC(F)(F)F)c3)ncc2F)nc1C(=O)NC1CNCC(F)C1 (stereo not drawn)
remaining binding (TGFBR2; KINOMEscan; 1 µM; relative to: DMSO control): 86%

Cc1ccc2c(Br)cc(Br)c([O-])c2n1.Cc1ccc2c(Br)cc(Br)c([O-])c2n1.[Co+2].c1cnc2c(c1)ccc1cccnc12
IC50 (HL-7702 normal hepatocytes; cell viability, MTT; 48 h): 63500 ± 1060 nM

O=C1C2=Nc3ccccc3CN2C(=S)N1c1ccc([N+](=O)[O-])cc1
IC50 (CCRF-CEM; resazurin; 72 h): 27800 ± 2600 nM

NC1=C(Cl)C(=O)c2ccccc2C1=O
IC50 (MOLT-3; cell growth or viability, XTT): 8280 nM

C[C@@H](c1ccccc1)N1C(=O)C2=Nc3ccccc3CN2C1=S
IC50 (CCRF-CEM; cell growth or viability, resazurin; 72 h): 482 nM

CC(C)c1ccc(N(C)c2ccc3c(c2)OCC[C@H]3CNc2cnccc2C(=O)O)cc1
IC50 (647-V; cell growth or viability, ATP luminescence; 7 days): 12.2 nM

CCCC[C@H]1C(=O)N(C)CCC=CC(=O)OCC(C)(C)C(=O)C(=O)N2CCCC[C@H]2C(=O)O[C@H](CCc2ccc(OC)c(OC)c2)c2cccc(c2)NC(=O)CCC(=O)N[C@@H](Cc2ccccc2)C(=O)N(C)[C@@H](Cc2ccccc2)C(=O)N2CCC[C@@H]2C(=O)N1C
IC50 (HUVEC; thymidine uptake, inhibitor): > 20000 nM

O=C1C2=Nc3ccccc3CN2C(=S)N1[C@H]1CCCc2ccccc21
IC50 (CCRF-CEM; resazurin; 72 h): 25000 ± 9150 nM

CC[C@H](C)[C@H](NC(=O)C[C@H](CCCCN)NC(=O)[C@H](Cc1ccccc1)NC(=O)C[C@H](CC(C)C)NC(=O)CN)C(=O)N[C@H](C(=O)N[C@@H](CCCCN)CC(=O)N[C@@H](CCCCN)C(=O)N[C@H](CC(=O)N[C@@H](CC(C)C)C(=O)N[C@@H](CCCCN)CC(=O)N[C@@H](CC(C)C)C(=O)N[C@@H](Cc1ccccc1)C(N)=O)[C@@H](C)CC)[C@@H](C)CC
IC50 (HUVEC; cytotoxicity): 14.3 µg/mL

Cc1nc(N(C)c2ccc3c(c2)/C(=C/c2ccccc2C)C(=O)N3C)c2ccccc2n1
IC50 (H22; cell growth or viability, MTT): 3060 nM

COc1ccc(CC[C@H]2OC(=O)[C@@H]3CCCCN3C(=O)C(=O)C(C)(C)COC(=O)C=CCCN(C)C(=O)[C@H](C)NC(=O)[C@@H](Cc3ccccc3)N(C)C(=O)[C@@H]3CCCN3C(=O)[C@H](CC(C)C)N(C)C(=O)CCC(=O)Nc3cccc2c3)cc1OC
IC50 (HUVEC; thymidine uptake, inhibitor): 478 ± 65 nM

C=CC(=O)N1CCCC(n2c(=O)c3ncccc3n(Cc3ccc(Oc4ccccc4)cc3)c2=O)C1 (stereo not drawn)
IC50 (L-428; cell growth or viability, MTT; 72 h): 20000 nM

CNS(=O)(=O)Nc1nccc(Cc2c(C)c3ccc(Oc4ncccc4F)cc3oc2=O)c1F
IC50 (C32; cell viability; 7 days): 4.03 nM

COc1ccc(CC[C@H]2OC(=O)[C@@H]3CCCCN3C(=O)C(=O)C(C)(C)COC(=O)C=CCCN(C)C(=O)[C@H](CC(C)C)N(C)C(=O)[C@@H]3CCCN3C(=O)[C@@H](Cc3ccccc3)N(C)C(=O)[C@@H](Cc3ccccc3)NC(=O)CCC(=O)Nc3cccc2c3)cc1OC
IC50 (HUVEC; thymidine uptake, inhibitor): > 20000 nM

O=C(O)C(CO)NCc1cc(Cl)c(OCc2cccc(-c3ccccc3)c2Br)cc1OCc1cccnc1 (stereo not drawn)
IC50 (human Hepatocyte; cell growth or viability, MTT): > 10000 nM

C[C@H](c1ccccc1)N1C(=O)C2=Nc3ccc(Br)cc3CN2C1=S
IC50 (CCRF-CEM; resazurin; 72 h): 480 ± 30 nM

CN1CCCNC(=O)c2cccc(c2)C(=O)NCCCN(C)CCCNc2cccc3c2C(=O)c2cccc(c2C3=O)NCCC1
log2 fold change (SAS; RNA-Seq, refers to: RAB35 mRNA; 1 µM, 6 h; relative to: untreated cells): -1.03

N#Cc1c(N)nc2c(c1-c1cccs1)Cc1cc(O)ccc1-2
IC50 (HuT78; cell growth or viability, ATP luminescence): 31400 nM

COc1ccccc1/C=C1\C(=O)N(C)c2ccc(N(C)c3nc(C)nc4ccccc34)cc21
IC50 (H22; cell growth or viability, MTT): 2920 nM

Cc1ccc(-c2ccc(C)cn2)nc1
IC50 (L02; cell growth or viability, MTT; 48 h): > 50000 nM

Cn1ncc(-c2ccc3c(=O)[nH]nc(CN)c3c2)c1-c1c(F)c(Cl)cc(OC2CC2)c1C#N
IC50 (CoC1/DDP; cell viability, inhibitor, CellTiter-Glo; 120 h): 2120 nM

Repeated from above:
NC1=C(Cl)C(=O)c2ccccc2C1=O
IC50 (MOLT-3; cell growth or viability, XTT): 8280 nM

C[C@H](c1ccccc1)N1C(=O)C2=Nc3ccc(Br)cc3CN2C1=S
IC50 (CCRF-CEM; resazurin; 72 h): 480 ± 30 nM

Cc1ccc(CN2C(=O)/C(=N\c3ccc(Cl)cc3Br)c3ccccc32)cc1
IC50 (L02; cell growth or viability, MTT; 48 h): 23100 nM
